Measured values of several laboratories.
Protocols differ between the studies behind these lines. ± marks the error that the study gave.
T1: NEMO 50-113 T50E/L55R/R75V/C76S/E78R/C95A/R106E/E110V; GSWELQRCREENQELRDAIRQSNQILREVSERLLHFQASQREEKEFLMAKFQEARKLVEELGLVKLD
B1: AIPL1 residues 8-end 8-328 (Mus musculus, UniProt Q924K1); C-terminal Avi tag; sequence looked up; chain NVEGVKKTILHGGTGELPSFITGSRVTFHFRTMKCDDERTVIDDSKQVGQPMSIIIGNMFKLEVWETLLTSMRLGEVAEFWCDTIHTGVYPMLSRSLRQVAEGKDPTSWHVHTCGLANMFAYHTLGYEDLDELQKEPQPLVFLIELLQVEAPNEYQRETWNLNNEERMQAVPLLHGEGNRLYKLGRYDQAATKYQEAIVCLRNLQTKEKPWEVEWLKLEKMINTLILNYCQCLLKKEEYYEVLEHTSDILRHHPGIVKAYYMRARAHAEVWNAEEAKADLEKVLELEPSMRKAVLRELRLLESRLADKQEEERQRCRSMLG
B2: dnaN R103C/I305C/C260S/C333S (Escherichia coli, UniProt P0A988); Alexa Fluor 488 label; sequence looked up; chain MKFTVEREHLLKPLQQVSGPLGGRPTLPILGNLLLQVADGTLSLTGTDLEMEMVARVALVQPHEPGATTVPARKFFDICRGLPEGAEIAVQLEGERMLVRSGCSRFSLSTLPAADFPNLDDWQSEVEFTLPQATMKRLIEATQFSMAHQDVRYYLNGMLFETEGEELRTVATDGHRLAVCSMPIGQSLPSHSVIVPRKGVIELMRMLDGGDNPLRVQIGSNNIRAHVGDFIFTSKLVDGRFPDYRRVLPKNPDKHLEAGSDLLKQAFARAAILSNEKFRGVRLYVSENQLKITANNPEQEEAEECLDVTYSGAEMEIGFNVSYVLDVLNALKSENVRMMLTDSVSSVQIEDAASQSAAYVVMPMRL
B3: IL18 37-193 C74S/C104S/C163S/L174C (Homo sapiens, UniProt Q14116); chain YFGKLESKLSVIRNLNDQVLFIDQGNRPLFEDMTDSDSRDNAPRTIFIISMYKDSQPRGMAVTISVKSEKISTLSCENKIISFKEMNPPDNIKDTKSDIIFFQRSVPGHDNKMQFESSSYEGYFLASEKERDLFKLICKKEDELGDRSIMFTVQNED
B4: BIK (Homo sapiens, UniProt Q13323); chain MSEVRPLSRDILMETLLYEQLLEPPTMEVLGMTDSEEDLDPMEDFDSLECMEGSDALALRLACIGDEMDVSLRAPRLAQLSEVAMHSLGLAFIYDQTEDIRDVLRSFMDGFTTLKENIMRFWRSPNPGSWVSCEQVLLALLLLLALLLPLLSGGLHLLLK
B5: EFR3B 716-787 (Homo sapiens, UniProt Q9Y2G0); chain VPAEEITYETLKKAIVDSVAVEEQERERRRQVVEKFQKAPFEEIAAHCGARASLLQSKLNQIFEITIRPPPS
B6: TNFSF4 51-183 (Homo sapiens, UniProt P23510); sequence looked up; chain QVSHRYPRIQSIKVQFTEYKKEKGFILTSQKEDEIMKVQNNSVIINCDGFYLISLKGYFSQEVNISLHYQKDEEPLFQLKKVRSVNSLMVASLTYKDKVYLNVTTDNTSLDDFHVNGGELILIHQNPGEFCVL
B7: ATG9 1-255 (Saccharomyces cerevisiae, UniProt Q12142); sequence looked up; chain MERDEYQLPNSHGKNTFLSRIFGLQSDEVNPSLNSQEMSNFPLPDIERGSSLLHSTNDSREDVDENDLRVPESDQGTSTEEEDEVDEEQVQAYAPQISDGLDGDHQLNSVTSKENVLETEKSNLERLVEGSTDDSVPKVGQLSSEEEEDNEFINNDGFDDDTPLFQKSKIHEFSSKKSNTIEDGKRPLFFRHILQNNRPQRDTQKLFTSSNAIHHDKDKSANNGPRNINGNQKHGTKYFGSATQPRFTGSPLNNT
B8: NOTCH1 237-549 (Homo sapiens, UniProt P46531); sequence looked up; chain GDVTHECACLPGFTGQNCEENIDDCPGNNCKNGGACVDGVNTYNCRCPPEWTGQYCTEDVDECQLMPNACQNGGTCHNTHGGYNCVCVNGWTGEDCSENIDDCASAACFHGATCHDRVASFYCECPHGRTGLLCHLNDACISNPCNEGSNCDTNPVNGKAICTCPSGYTGPACSQDVDECSLGANPCEHAGKCINTLGSFECQCLQGYTGPRCEIDVNECVSNPCQNDATCLDQIGEFQCICMPGYEGVHCEVNTDECASSPCLHNGRCLDKINEFQCECPTGFTGHLCQYDVDECASTPCKNGAKCLDGPNT
B9: spdl-1 C-terminal 362-479 (Caenorhabditis elegans, UniProt Q17695); sequence looked up; chain PVVNKDFEHPLLAAPLKTLNNGRPSFFIKPKNVEPMPQLGHSLSSIAVTPQKPAAKFTTRSSIKDDTSEWAERRMKAQAEKKLATPTPRYNYIKLSEPVPKFKPAVLQMPSTSETKEN
B10: UBQLN2 450-624 (Homo sapiens, UniProt Q9UHD9); chain RAMQALMQIQQGLQTLATEAPGLIPSFTPGVGVGVLGTAIGPVGPVTPIGPIGPIVPFTPIGPIGPIGPTGPAAPPGSTGSGGPTGPTVSSAAPSETTSPTSESGPNQQFIQQMVQALAGANAPQLPNPEVRFQQQLEQLNAMGFLNREANLQALIATGGDINAAIERLLGSQPS
B11: designed binder (Homo sapiens); chain MASAARLTMMWEEVTCPICLDPFVEPVSIECGHSFCQECISQVGKGGGSVCPVCRQRFLLKNLRPNRQLANMVNNLKEISQEAREGTQGERCAVHGERLHLFCEKDGKALCWVCAQSRKHRDHAMVPLEEAAQEYQEKLQVALGELRRKQELAEKLEVEIAIKRADWKKTVETQKSRIHAEFVQQKNFLVEEEQRQLQELEKDEREQLRILGEKEAKLAQQSQALQELISELDRRCHSSALELLQEVIIVLERSESWNLKDLDITSPELRSVCHVPGLKKMLRTCAGGGGSGGGGSGGGGSRLDAPSTIAVYRVSYTYAIIYWYSPLAEIDGFELTYGIKDVPGDRTTIKLTEDDGHYVIRHLKPDTEYEVSLISRRGDMSSNPAKITFKTGL
B12: SRS2 1107-1174 F1153A (Saccharomyces cerevisiae, UniProt P12954); N-terminal cysteine BODIPY-FL; chain CHNPDDTTVDNRPIISNAKFLADAAMKKTQKFSKKVKNEPASSQMDIASQLSRAKKKSKLNNGEIIVID
Chain of UniProt P12314 (whole entry, unmodified, looked up): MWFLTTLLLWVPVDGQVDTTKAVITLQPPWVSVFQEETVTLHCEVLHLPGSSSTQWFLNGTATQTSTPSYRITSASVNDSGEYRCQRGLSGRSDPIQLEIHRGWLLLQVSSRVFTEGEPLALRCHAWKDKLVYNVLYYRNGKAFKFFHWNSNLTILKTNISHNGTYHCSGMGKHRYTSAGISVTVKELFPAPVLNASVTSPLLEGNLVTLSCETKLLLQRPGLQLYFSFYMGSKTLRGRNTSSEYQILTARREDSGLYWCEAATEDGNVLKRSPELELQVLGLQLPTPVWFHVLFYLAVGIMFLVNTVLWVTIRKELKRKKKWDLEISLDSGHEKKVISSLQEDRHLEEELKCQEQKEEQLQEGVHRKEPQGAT
Chain of UniProt P09871 (whole entry, looked up): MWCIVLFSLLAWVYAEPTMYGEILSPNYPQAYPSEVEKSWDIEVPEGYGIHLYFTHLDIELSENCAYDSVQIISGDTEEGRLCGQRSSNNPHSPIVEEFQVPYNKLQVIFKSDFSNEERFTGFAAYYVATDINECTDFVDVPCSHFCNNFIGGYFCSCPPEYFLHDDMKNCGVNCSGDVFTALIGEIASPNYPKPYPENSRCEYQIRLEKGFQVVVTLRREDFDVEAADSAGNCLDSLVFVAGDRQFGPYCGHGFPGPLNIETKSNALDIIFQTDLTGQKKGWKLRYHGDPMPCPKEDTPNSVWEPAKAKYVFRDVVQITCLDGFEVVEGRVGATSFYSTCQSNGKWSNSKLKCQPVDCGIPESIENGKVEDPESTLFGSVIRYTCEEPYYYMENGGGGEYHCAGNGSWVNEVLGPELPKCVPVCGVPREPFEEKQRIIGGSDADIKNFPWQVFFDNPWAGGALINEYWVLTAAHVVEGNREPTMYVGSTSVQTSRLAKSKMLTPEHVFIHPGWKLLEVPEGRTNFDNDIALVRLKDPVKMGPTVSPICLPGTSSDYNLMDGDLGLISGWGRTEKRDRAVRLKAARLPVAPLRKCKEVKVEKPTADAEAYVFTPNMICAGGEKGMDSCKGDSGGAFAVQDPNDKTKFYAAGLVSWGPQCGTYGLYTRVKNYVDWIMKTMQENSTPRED
Chain of UniProt Q06671 (whole entry, unmodified, looked up): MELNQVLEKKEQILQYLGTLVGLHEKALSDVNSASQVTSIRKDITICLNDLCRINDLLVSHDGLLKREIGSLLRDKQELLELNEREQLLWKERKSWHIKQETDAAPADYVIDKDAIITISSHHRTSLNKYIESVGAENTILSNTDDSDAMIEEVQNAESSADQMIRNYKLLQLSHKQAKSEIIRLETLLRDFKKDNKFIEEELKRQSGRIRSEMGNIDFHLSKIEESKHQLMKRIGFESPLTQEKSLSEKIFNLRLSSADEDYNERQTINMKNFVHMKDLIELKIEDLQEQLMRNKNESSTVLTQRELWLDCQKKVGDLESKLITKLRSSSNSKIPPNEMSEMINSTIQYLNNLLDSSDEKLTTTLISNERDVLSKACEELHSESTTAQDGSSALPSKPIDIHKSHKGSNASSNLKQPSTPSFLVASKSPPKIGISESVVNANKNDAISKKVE
Chain of UniProt P15873 (whole entry, unmodified, looked up): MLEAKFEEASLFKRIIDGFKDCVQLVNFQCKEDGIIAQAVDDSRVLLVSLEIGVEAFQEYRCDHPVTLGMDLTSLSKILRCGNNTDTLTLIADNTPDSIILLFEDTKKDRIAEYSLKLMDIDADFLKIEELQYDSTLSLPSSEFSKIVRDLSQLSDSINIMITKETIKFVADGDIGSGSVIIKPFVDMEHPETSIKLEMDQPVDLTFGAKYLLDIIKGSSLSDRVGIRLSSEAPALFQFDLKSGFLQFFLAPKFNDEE
Chain of UniProt Q23985 (whole entry, looked up): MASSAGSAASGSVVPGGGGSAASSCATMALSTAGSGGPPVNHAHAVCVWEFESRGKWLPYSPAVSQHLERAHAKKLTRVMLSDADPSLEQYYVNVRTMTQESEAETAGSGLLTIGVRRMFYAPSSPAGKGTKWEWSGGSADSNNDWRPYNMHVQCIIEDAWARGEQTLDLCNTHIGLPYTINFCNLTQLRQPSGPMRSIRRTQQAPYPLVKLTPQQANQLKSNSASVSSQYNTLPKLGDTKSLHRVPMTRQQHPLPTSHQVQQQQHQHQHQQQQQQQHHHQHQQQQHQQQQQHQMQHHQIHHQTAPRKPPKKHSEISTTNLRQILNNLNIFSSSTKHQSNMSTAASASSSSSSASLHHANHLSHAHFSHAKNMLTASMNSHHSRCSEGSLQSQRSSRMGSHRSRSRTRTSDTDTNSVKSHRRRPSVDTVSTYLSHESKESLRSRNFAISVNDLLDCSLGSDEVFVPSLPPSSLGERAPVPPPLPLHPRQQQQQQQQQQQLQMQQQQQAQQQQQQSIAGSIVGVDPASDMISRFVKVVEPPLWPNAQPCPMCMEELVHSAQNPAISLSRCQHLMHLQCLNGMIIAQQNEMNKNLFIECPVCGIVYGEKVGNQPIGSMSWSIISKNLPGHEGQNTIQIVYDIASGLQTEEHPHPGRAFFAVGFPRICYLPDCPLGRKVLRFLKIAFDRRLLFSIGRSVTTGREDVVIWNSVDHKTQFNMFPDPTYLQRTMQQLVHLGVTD
Chain of UniProt Q20849 (whole entry, looked up): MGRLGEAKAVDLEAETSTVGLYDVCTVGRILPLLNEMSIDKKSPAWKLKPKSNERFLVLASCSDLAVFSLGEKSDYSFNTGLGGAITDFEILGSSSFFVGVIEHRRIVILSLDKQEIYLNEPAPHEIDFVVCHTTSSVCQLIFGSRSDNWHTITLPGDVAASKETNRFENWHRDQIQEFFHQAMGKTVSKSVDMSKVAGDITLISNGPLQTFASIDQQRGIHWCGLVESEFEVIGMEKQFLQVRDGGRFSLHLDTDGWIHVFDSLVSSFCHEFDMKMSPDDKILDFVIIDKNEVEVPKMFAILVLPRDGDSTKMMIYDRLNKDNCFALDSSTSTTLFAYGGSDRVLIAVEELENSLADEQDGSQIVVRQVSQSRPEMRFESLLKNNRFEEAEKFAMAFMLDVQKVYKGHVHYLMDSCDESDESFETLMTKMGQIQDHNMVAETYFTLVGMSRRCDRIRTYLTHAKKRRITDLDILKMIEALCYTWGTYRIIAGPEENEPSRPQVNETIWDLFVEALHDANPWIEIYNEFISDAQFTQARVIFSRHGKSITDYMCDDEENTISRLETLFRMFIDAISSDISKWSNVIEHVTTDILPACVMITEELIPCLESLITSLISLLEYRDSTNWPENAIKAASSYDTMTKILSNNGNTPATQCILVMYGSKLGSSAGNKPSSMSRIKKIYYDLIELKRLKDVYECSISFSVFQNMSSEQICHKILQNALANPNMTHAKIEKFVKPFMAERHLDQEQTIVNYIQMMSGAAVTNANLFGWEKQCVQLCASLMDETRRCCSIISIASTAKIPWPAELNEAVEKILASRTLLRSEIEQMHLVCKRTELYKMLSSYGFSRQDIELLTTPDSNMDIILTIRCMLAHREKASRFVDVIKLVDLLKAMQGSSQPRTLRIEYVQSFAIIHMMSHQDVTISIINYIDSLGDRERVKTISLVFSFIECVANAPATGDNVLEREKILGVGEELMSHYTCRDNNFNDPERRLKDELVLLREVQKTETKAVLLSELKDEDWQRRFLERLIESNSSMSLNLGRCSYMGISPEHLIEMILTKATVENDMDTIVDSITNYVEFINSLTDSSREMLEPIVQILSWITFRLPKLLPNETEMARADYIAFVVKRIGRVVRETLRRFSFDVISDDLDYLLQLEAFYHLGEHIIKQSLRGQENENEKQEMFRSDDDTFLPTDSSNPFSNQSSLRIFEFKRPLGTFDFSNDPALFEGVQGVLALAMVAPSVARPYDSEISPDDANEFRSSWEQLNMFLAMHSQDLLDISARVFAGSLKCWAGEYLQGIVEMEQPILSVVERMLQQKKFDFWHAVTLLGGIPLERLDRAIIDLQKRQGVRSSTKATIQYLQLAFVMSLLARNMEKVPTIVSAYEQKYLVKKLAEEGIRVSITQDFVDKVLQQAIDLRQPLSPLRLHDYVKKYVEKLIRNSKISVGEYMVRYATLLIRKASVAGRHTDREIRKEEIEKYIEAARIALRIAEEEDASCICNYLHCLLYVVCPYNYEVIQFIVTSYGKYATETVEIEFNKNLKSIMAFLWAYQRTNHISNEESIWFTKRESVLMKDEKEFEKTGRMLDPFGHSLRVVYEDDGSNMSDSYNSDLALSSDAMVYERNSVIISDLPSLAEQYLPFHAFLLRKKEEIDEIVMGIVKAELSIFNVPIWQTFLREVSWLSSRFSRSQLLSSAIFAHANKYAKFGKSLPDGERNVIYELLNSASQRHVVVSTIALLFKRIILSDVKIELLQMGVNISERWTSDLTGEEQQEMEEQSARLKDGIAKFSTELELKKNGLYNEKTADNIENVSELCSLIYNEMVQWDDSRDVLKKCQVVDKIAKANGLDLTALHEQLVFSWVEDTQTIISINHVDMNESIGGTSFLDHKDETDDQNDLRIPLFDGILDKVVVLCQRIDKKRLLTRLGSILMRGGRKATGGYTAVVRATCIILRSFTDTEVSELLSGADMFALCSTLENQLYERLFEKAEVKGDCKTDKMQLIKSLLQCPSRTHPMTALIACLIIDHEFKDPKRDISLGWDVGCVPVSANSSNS
Chain of UniProt P70345 (whole entry, looked up): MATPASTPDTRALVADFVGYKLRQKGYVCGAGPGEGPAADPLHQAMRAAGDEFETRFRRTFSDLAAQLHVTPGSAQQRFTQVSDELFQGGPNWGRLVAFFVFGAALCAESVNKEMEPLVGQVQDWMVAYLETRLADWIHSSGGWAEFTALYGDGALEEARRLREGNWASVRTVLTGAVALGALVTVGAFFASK

`B1 (AIPL1 residues 8-end 8-328)` has a Kd of 1780 nM (HSP90AB1 full length, AMPPNP-bound (Homo sapiens, UniProt P08238); BLI; 26 °C).
With `B2 (dnaN R103C/I305C/C260S/C333S)` the Kd was 2 nM (clamp loader (Escherichia coli, UniProt P06710-2); fluorescence titration).
`FIYWPWADLGVPDCG (macrocyclic peptide; cyclic)` gave a Kd of greater than 10000 nM (HRAS fragment (Homo sapiens); SPR; peptide).
With `B3` the Kd was 0.007 nM (IL18BP (Homo sapiens, UniProt O95998); SPR).
`MBL-A mature, hydroxylysine, hydroxyproline in collagen (Rattus norvegicus, UniProt P19999)` gave a Kd of 62.9 nM (C1S (Homo sapiens, UniProt P09871); SPR; added: CaCl2 140 mM).
With `B4 (BIK)` the Kd was 9000 nM (Bcl2l2 (Mus musculus, UniProt P70345); FRET or BRET; not purified).
With `DHEYVLTESFLDSGAFPNHDVIDHNKMLNSNYNGNGILNKGGVLGLVKEYYKKSDVGR (ATG9 940-997 (Saccharomyces cerevisiae, UniProt Q12142); sequence looked up)` the Kd was 3340 nM (ATG23 Y16E (UniProt Q06671); BLI).
The Kd of `APMKWL (designed peptide; FITC label)` is reported as 102000 nM (NHERF2 142-254 (Homo sapiens, UniProt Q15599-1); fluorescence intensity change, fluorescence titration; peptide).
With `ISTEEVQFLIPPESQAEKPEAGDKPAAAEQ (CCDC32 150-179 (Mus musculus, UniProt Q8BS39))` the Kd was 610 nM (AP-2 core (Mus musculus); FP).
For `PARRSEELVAEAHNLCTLLENAIQDTVREQDQSFTALDWSWLQTE (IKBKB 701-745 K703R/K704R (UniProt O14920); N-terminal FITC; sequence looked up)`, the Kd was 348 nM (T1, NEMO 50-113 T50E/L55R/R75V/C76S/E78R/C95A/R106E/E110V; fluorescence polarisation; peptide).
With `B5 (EFR3B 716-787)` the Kd was 0.345 nM (TTC7B/FAM126B 1-308; BLI).
`B6 (TNFSF4 51-183)` gave a Kd of 1600 nM (TNFRSF4 29-170 W86A (Homo sapiens, UniProt P43489); SPR).
`B7 (ATG9 1-255)` gave a Kd of 1500 nM (ATG23 full-length, dimer (Saccharomyces cerevisiae, UniProt Q06671); BLI).
`KLLMIIHDRREFAKFEKEKMNAKWDTQENPIYKSPINNFKNPNYGRKAGL (ITGB1 752-801 (Homo sapiens, UniProt P05556-5); sequence looked up)` has a Kd of 51000 nM (Tln2 312-408 P355S (Mus musculus, UniProt Q71LX4); NMR titration).
With `B8 (NOTCH1 237-549)` the Kd was 24 nM (DLL4 27-400 G28S/F107L/I143F/H194Y/L206P/N257P/T271L/F280Y/S301R/Q305P (Homo sapiens, UniProt Q9NR61); SPR).
`B9 (spdl-1 C-terminal 362-479)` gave a Kd of 13400 ± 5000 nM (rod-1 2-418 (Caenorhabditis elegans, UniProt Q20849); SPR).
For `NGIAAMLQRHSRKRFQL (PIF1 815-831 (Saccharomyces cerevisiae, UniProt P07271); sequence looked up)`, the Kd was 19000 nM (POL30 1-258 (Saccharomyces cerevisiae, UniProt P15873); ITC; peptide).
For `DEDAADDDDDEFIYPNSY (upa1 944-961 (Ustilago maydis, UniProt A0A0D1E015); sequence looked up)`, the Kd was 5700 nM (rrm4 679-792 (Ustilago maydis, UniProt A0A0D1DWZ5); ITC; peptide).
`Notch ankyrin domain R85A/R107A (Drosophila)` has a Kd of 56700 nM (dx (Drosophila melanogaster, UniProt Q23985); AUC).
With `Trastuzumab IgG1, CSCS double cysteine mutant (Homo sapiens)` the Kd was 0.92 nM (FCGR1A (Homo sapiens, UniProt P12314); SPR).
The Kd of `B10 (UBQLN2 450-624)` is reported as 3380 nM (ubiquitin (UniProt P0CG48); NMR titration).
The Kd of `B11 (designed binder)` is reported as greater than 3800 nM (EED (Homo sapiens, UniProt O75530); BLI; designed binder).
`B12 (SRS2 1107-1174 F1153A)` gave a Kd of 1480 nM (POL30 1-258 K127G (Saccharomyces cerevisiae, UniProt P15873); fluorescence polarisation; apparent).

Some of these lines once more:
`B9 (spdl-1 C-terminal 362-479)` gave a Kd of 13400 ± 5000 nM (rod-1 2-418 (Caenorhabditis elegans, UniProt Q20849); SPR).
For `NGIAAMLQRHSRKRFQL (PIF1 815-831 (Saccharomyces cerevisiae, UniProt P07271); sequence looked up)`, the Kd was 19000 nM (POL30 1-258 (Saccharomyces cerevisiae, UniProt P15873); ITC; peptide).
For `DEDAADDDDDEFIYPNSY (upa1 944-961 (Ustilago maydis, UniProt A0A0D1E015); sequence looked up)`, the Kd was 5700 nM (rrm4 679-792 (Ustilago maydis, UniProt A0A0D1DWZ5); ITC; peptide).
